Measured values gathered from unrelated publications.
Each line is one published result; not all experiments were run side by side.
Organism: Streptococcus pneumoniae

The MIC of `Oc1c(Br)c(Cl)c(Br)c2nc3c(C(F)(F)F)cc(C(F)(F)F)cc3nc12` is reported as 1.56 µM (microbial growth, broth dilution; 6303).
`COCCNCc1cc(N(C)C)c2c(c1O)C(=O)C1=C(O)[C@]3(O)C(=O)C(C(N)=O)=C(O)[C@@H](N(C)C)[C@@H]3C[C@@H]1C2` gave an MIC of 0.5 µg/mL (ATCC 700905, Tet M ribosome protection).
For `Oc1c(Br)cc(Br)c2nc3cc(I)ccc3nc12`, the MIC was 0.2 µM (microbial growth, broth dilution; 6303).
The MIC of `CC[C@H](C)[C@H](N)C1=N[C@H](C(=O)N[C@@H](CC(C)C)C(=O)N[C@H](CCC(=O)O)C(=O)N[C@H](C(=O)N[C@H]2CCCCNC(=O)[C@H](CC(N)=O)NC(=O)[C@@H](CC(=O)O)NC(=O)[C@H](Cc3c[nH]cn3)NC(=O)[C@@H](Cc3ccccc3)NC(=O)[C@H]([C@@H](C)CC)NC(=O)[C@@H](CCCN)NC2=O)[C@@H](C)CC)CS1` is reported as 2 µg/mL (153, TSB with lysed horse blood; 24 h, 37 °C, together with: ZnSO4).
`c1ccc(CN2CCOCCOCCN(CCCCCCCCCCCCCCN3CCOCCOCCN(CCCCCCCCCCCCCCN4CCOCCOCCN(Cc5ccccc5)CCOCCOCC4)CCOCCOCC3)CCOCCOCC2)cc1` has an MIC of 6 µM (R:Levo).
`Oc1c(Br)cc(Br)c2nc3c(C(F)(F)F)cc(C(F)(F)F)cc3nc12` gave an MIC of 0.08 µM (microbial growth, broth dilution; 6303).
The MIC of `c1ccc(CN2CCOCCOCCN(CCCCCCCCCCN3CCOCCOCCN(CCCCCCCCCCN4CCOCCOCCN(Cc5ccccc5)CCOCCOCC4)CCOCCOCC3)CCOCCOCC2)cc1` is reported as 6 µM (R:Levo).
`Cc1csc(NCc2cc(N(C)C)c3c(c2O)C(=O)C2=C(O)[C@]4(O)C(=O)C(C(N)=O)=C(O)[C@@H](N(C)C)[C@@H]4C[C@@H]2C3)n1` gave an MIC of 4 µg/mL (microbial growth, broth dilution).
The MIC of `CC(/C=C/C(O)=C1/C(=O)CNC1=O)=C\[C@@H](C)[C@H]1O[C@@]2(C)O[C@H](C[C@@H]3O[C@@]32CO)[C@@H]1C` is reported as 25 µM (ATCC 49619).
The MIC of `CN(C)c1cc(CN)c(O)c2c1C[C@H]1C[C@H]3[C@H](N(C)C)C(O)=C(C(N)=O)C(=O)[C@@]3(O)C(O)=C1C2=O` is reported as 4 µg/mL (ATCC 700905, Tet M ribosome protection).
`CNC1=C([N+](=O)[O-])C2(C(=O)Nc3ccc(Cl)cc32)C2=C(O1)C(=O)c1ccccc1C2=O` (stereo not shown) gave an MIC of 125 µg/mL (MTCC 655).
For `C=CCNCc1cc(N(C)C)c2c(c1O)C(=O)C1=C(O)[C@]3(O)C(=O)C(C(N)=O)=C(O)[C@@H](N(C)C)[C@@H]3C[C@@H]1C2`, the MIC was 0.5 µg/mL (ATCC 700905, Tet M ribosome protection).
`CC(/C=C/C(O)=C1/C(=O)CNC1=O)=C\[C@@H](C)[C@H]1O[C@@]2(C)O[C@H](C[C@@H]3O[C@@]32C)[C@@H]1C` has an MIC of over 100 µM (ATCC 49619).
